Assay results from different studies.
Each line is one published result; not all experiments were run side by side. Values joined by “and” are separate records of one study, mostly repeats; a detail may differ. Numbers after ± are the reported error.

Molecule | test | system | setting | Tmax
CN(Cc1cnc2nc(N)nc(N)c2n1)c1ccc(C(=O)N[C@@H](CCC(=O)O)C(=O)O)cc1 |  | human, both sexes, plasma | oral, 20 mg, day 1, alone, median | 1.5 h
O=C(NC[C@H](O)CO)c1ccncc1Nc1ccc(I)cc1F |  | human | oral, 45 mg, single dose with FOLFIRI | 2 h
Cc1ccc(C(=O)N2CCOC[C@H]2Cc2cccc(-n3nccn3)c2)c(-n2nccn2)c1 |  | healthy human, plasma | oral, 100 mg initial dose, day 8 | 3 h
Cc1ccc(NC(=O)c2ccc(CN3CCNCC3)cc2)cc1Nc1nccc(-c2cccnc2)n1 |  | human patients, plasma | oral, 400 mg/day of imatinib, day 10 of cycle 1 | 2.2 h
CC(C)(/C=C(\C#N)C(=O)N1CCC[C@@H](n2nc(-c3ccc(Oc4ccccc4)cc3F)c3c(N)ncnc32)C1)N1CCN(C2COC2)CC1 |  | human, plasma | oral, 100 mg single dose, median | ~1 h
COc1cc(Nc2ncc3c(n2)-c2ccc(Cl)cc2C(c2c(F)cccc2OC)=NC3)ccc1C(=O)O |  | human, phase I | oral, 30 mg twice daily, together with: combination with other drug | 1.3 ± 1.6 h
CCCC[C@H](NC(C)=O)C(=O)N[C@H]1CC(=O)NCCCC[C@@H](C(=O)O)NC(=O)[C@H](Cc2c[nH]c3ccccc23)NC(=O)[C@H](CCCN=C(N)N)NC(=O)[C@@H](Cc2ccccc2)NC(=O)[C@H](Cc2cnc[nH]2)NC1=O |  | human, plasma | subcutaneous, 1.25 mg, second dose | 0.53 h
C[C@H]1C[C@@H]2[C@H]([C@@H](O)C[C@@]3(C)[C@H]2CC[C@]3(O)C(=O)CO)[C@@]2(C)C=CC(=O)C=C12 | refers to: free compound | human, plasma | oral, once daily, 32 mg, day 4, median | 2 h
O=C([O-])CCCCCCCNC(=O)c1ccccc1O.[Na+] |  | human, normal hepatic function, plasma | oral, day 10, median | 0.49 h
CC(C)[C@H](N)C(=O)NCCCS(=O)(=O)O |  | healthy human, both sexes, plasma | oral, 100 mg capsule, median | 0.51 h
CC[C@H](C)[C@@H]1NC(=O)[C@H](CCCNC(=N)N)NC(=O)[C@H](CC(=O)O)NC(=O)[C@H](CC(C)C)NC(=O)[C@H](CCCCN)NC(=O)[C@H](CC(C)C)NC(=O)CNC(=O)[C@H](Cc2ccccc2)NC(=O)[C@@H](NC(=O)CNC(=O)[C@H](CCCCN)NC(=O)[C@H](CO)NC(=O)[C@H](CC(C)C)NC(=O)CNC(=O)[C@H](CCCCN)NC(=O)[C@H](CCCCN)NC(=O)[C@H](CC(N)=O)NC(=O)[C@H](C)NC(=O)CNC(=O)[C@H](CCCCN)NC(=O)[C@H](Cc2ccc(O)cc2)NC(=O)[C@H](CCCCN)NC(=O)[C@H](CCCNC(=N)N)NC(=O)[C@H](C)NC(=O)[C@H](CC(N)=O)NC(=O)[C@@H]2CCCN2C(=O)[C@H](Cc2c[nH]cn2)NC(=O)[C@H](CCC(=O)O)NC(=O)[C@H](CCC(N)=O)NC(=O)CNC(=O)[C@@H]2CCCN2)CSSC[C@@H](C(=O)O)NC(=O)CNC(=O)[C@H](CC(C)C)NC(=O)CNC(=O)[C@H](CO)NC(=O)[C@H](CCSC)NC(=O)[C@H](CO)NC(=O)CNC1=O | ECLA | human, plasma | subcutaneous, 15 µg/kg once daily, week 26 | 0.242 h
CCCCCCCOc1ccc(CCC(N)(CO)CO)cc1C(F)(F)F.Cl |  | healthy human males, plasma | oral, 0.125 to 0.75 mg, day 21, median across doses | 6 to 10 h
N[C@@H](Cc1ccc(O)c(O)c1)C(=O)O | dry-powder inhaler | human, plasma | inhalation, 60 mg | ≤ 0.25 h and 0.167 h and 0.0833 h
O=C(Nc1c(Cl)cncc1Cl)c1ccc(OC(F)F)c(OCC2CC2)c1 |  | human adolescents, 12-17 years, plasma | topical, 0.3% cream once daily, day 15 | 10.4 h
Cc1[nH]c(/C=C2\C(=O)Nc3ccc(F)cc32)c(C)c1C(=O)N[C@H]1CCN(C(=O)N(C)C)C1 |  | human, plasma | oral, 200 mg once daily multiple dosing, median, together with: everolimus 5 mg | 2.02 h
CCOc1ccc(Cc2cc([C@@H]3S[C@H](CO)[C@@H](O)[C@H](O)[C@H]3O)c(OC)cc2C)cc1 |  | human, plasma | oral, 5 mg/day, day 7, multiple dose before breakfast | 0.625 ± 0.231 h
Cc1[nH]c(/C=C2\C(=O)Nc3ccccc32)c(C)c1CCC(=O)O |  | human patients | oral, 200 mg/m^2 twice daily, after meal, dose 55 | 2 ± 0.866 h
Cc1cc(-c2nnc(N)nc2-c2ccc(F)cc2)cc(Cl)n1 |  | human patients, plasma | oral, single dose | 0.5 to 2 h
O=C(Cc1cccc(OC(F)(F)F)c1)Nc1ccc(CCCCc2nnc(NC(=O)Cc3ccccn3)s2)nn1 |  | human patients, plasma | oral, 100 mg three times daily fasted, cycle 1 day 15 steady state | 1.54 h

Molecule | test | system | setting | Tmax
CCOc1cc([C@@H](CS(C)(=O)=O)N2C(=O)c3cccc(NC(C)=O)c3C2=O)ccc1O[C@@H]1O[C@H](C(=O)O)[C@@H](O)[C@H](O)[C@H]1O |  | healthy human controls, plasma | oral, 30 mg apremilast, matched to moderate impairment | 5 h
COc1ccc2nc([S@@+]([O-])Cc3ncc(C)c(OC)c3C)[nH]c2c1 | HPLC | human CYP2C19 normal metabolizers, plasma | oral, 40 mg/day, day 1, pantoprazole | 6 ± 8 h
Nc1ccn([C@@H]2O[C@H](CO)[C@@H](O)C2(F)F)c(=O)n1 | LC-MS/MS | human, plasma | intravenous, 750 mg/m2, cycle 1 day 15, median, together with: lonafarnib 150 mg twice daily | 0.5 h
CNC(=O)c1ccccc1Sc1ccc2c(/C=C/c3ccccn3)n[nH]c2c1 |  | human, fed, plasma | oral, 5 mg single dose, median | 4.1 h
CC(C)NC[C@@H](C(=O)N1CCN(c2ncnc3c2[C@H](C)C[C@H]3O)CC1)c1ccc(Cl)cc1 |  | human, Mild hepatic function, plasma | oral, 100 mg single dose, NCI classification, median | 1 h
Cc1ccc(NC(=O)c2ccc(CN3CCN(C)CC3)cc2)cc1Nc1nccc(-c2cncc(-c3oncc3C)c2)n1 |  | older healthy human adults, plasma | oral, 37.5 mg single dose, fed, mean | 5.67 h
CN1CCc2nc(C(=O)N[C@@H]3C[C@@H](C(=O)N(C)C)CC[C@@H]3NC(=O)C(=O)Nc3ccc(Cl)cn3)sc2C1 |  | human, plasma | fed, together with: dronedarone | 1.98 h
CCCCNC(=O)NS(=O)(=O)c1ccc(C(=O)O)cc1 |  | human | oral, 500 mg | ~4 h
Platinum | ICP-MS, refers to: total platinum | human, plasma | cisplatin, cycle 2 day 1, median, together with: regorafenib 21 days | 2 h
O=C(c1ccc(OCCN2CCCCC2)cc1)c1c(-c2ccc(O)cc2)sc2cc(O)ccc12 |  | healthy humans, plasma | oral, 60 mg, together with: chronic green tea | 1 h
COC(=O)c1ccc2c(c1)NC(=O)/C2=C(\Nc1ccc(N(C)C(=O)CN2CCN(C)CC2)cc1)c1ccccc1 |  | human, moderate liver impairment, plasma | oral, 200 mg twice daily, steady state | 4 h
CNc1nc(Nc2ccc(-n3cnc(C)n3)c(OC)c2)nc2c1CC[C@H]2c1ccc(F)cc1 |  | human | oral, 50 mg once daily, day 28, multiple ascending dose, median | 5 h
O=C(CCCCCCC(=O)Nc1ccccc1)NO |  | human patients, serum | oral, 600 mg twice daily | 2.3 h
C#C[C@]1(CO)O[C@@H](n2cnc3c(N)nc(F)nc32)C[C@@H]1O |  | human, plasma | oral, 10 mg once weekly, week 1 | 1 h
CCn1c(C(=O)c2cc(C)cc(C#N)c2)c(C(C)C)c(=O)[nH]c1=O |  | healthy humans, plasma | oral, 75 mg once daily, 7 days, median | 1.3 h
COc1ccnc(C[S+]([O-])c2nc3ccc(OC(F)F)cc3[nH]2)c1OC (stereo not shown) | HPLC | human CYP2C19 poor metabolizers, plasma | oral, 40 mg/day, day 1, esomeprazole | 4.67 ± 1.15 h
CC(=O)c1c(C)c2cnc(Nc3ccc(N4CCNCC4)cn3)nc2n(C2CCCC2)c1=O |  | human | oral, 50 mg/m^2 repeated doses, day 21 | 5.3 ± 2 h
C[C@@H](c1nc(-c2ccc(C#N)cc2)cs1)[C@](O)(Cn1cncn1)c1cc(F)ccc1F |  | human, both sexes, plasma | oral, 200 mg single dose, median, together with: ketoconazole 200 mg BID | 3 h
